Published values collected from several papers.
Each line is one published result; not all experiments were run side by side. Several values in a cell are separate wells, animals, samples, runs or records. Numbers after ± are the reported error.
Tripartite terminase subunit 3 C-terminal nuclease domain: Tripartite terminase subunit 3, C-terminal nuclease domain (Human betaherpesvirus 5, UniProt P16732)
UniProt P16732, sequence (whole entry, looked up): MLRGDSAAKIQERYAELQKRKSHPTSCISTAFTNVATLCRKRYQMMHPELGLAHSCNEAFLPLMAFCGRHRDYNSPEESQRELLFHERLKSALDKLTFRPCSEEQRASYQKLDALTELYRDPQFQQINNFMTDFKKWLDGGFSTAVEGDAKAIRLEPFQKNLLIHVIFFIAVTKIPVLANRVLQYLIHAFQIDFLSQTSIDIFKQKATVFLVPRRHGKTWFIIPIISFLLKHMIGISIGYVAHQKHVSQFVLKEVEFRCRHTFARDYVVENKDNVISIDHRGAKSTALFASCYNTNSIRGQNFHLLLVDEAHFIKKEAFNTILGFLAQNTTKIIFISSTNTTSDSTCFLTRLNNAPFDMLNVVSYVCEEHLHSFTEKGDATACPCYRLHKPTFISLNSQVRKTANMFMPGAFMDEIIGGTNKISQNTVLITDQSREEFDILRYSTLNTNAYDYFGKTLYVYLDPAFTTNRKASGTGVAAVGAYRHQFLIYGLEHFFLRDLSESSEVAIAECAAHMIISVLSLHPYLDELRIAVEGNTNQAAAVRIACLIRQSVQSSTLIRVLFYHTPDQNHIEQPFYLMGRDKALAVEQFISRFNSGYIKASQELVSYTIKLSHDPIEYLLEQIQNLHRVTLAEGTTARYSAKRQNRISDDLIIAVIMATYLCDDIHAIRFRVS
Genome polyprotein NS2B-NS3 protease: Genome polyprotein, NS2B-NS3 protease (ZIKV, UniProt A0A024B7W1)
UniProt A0A024B7W1, sequence (whole entry, looked up): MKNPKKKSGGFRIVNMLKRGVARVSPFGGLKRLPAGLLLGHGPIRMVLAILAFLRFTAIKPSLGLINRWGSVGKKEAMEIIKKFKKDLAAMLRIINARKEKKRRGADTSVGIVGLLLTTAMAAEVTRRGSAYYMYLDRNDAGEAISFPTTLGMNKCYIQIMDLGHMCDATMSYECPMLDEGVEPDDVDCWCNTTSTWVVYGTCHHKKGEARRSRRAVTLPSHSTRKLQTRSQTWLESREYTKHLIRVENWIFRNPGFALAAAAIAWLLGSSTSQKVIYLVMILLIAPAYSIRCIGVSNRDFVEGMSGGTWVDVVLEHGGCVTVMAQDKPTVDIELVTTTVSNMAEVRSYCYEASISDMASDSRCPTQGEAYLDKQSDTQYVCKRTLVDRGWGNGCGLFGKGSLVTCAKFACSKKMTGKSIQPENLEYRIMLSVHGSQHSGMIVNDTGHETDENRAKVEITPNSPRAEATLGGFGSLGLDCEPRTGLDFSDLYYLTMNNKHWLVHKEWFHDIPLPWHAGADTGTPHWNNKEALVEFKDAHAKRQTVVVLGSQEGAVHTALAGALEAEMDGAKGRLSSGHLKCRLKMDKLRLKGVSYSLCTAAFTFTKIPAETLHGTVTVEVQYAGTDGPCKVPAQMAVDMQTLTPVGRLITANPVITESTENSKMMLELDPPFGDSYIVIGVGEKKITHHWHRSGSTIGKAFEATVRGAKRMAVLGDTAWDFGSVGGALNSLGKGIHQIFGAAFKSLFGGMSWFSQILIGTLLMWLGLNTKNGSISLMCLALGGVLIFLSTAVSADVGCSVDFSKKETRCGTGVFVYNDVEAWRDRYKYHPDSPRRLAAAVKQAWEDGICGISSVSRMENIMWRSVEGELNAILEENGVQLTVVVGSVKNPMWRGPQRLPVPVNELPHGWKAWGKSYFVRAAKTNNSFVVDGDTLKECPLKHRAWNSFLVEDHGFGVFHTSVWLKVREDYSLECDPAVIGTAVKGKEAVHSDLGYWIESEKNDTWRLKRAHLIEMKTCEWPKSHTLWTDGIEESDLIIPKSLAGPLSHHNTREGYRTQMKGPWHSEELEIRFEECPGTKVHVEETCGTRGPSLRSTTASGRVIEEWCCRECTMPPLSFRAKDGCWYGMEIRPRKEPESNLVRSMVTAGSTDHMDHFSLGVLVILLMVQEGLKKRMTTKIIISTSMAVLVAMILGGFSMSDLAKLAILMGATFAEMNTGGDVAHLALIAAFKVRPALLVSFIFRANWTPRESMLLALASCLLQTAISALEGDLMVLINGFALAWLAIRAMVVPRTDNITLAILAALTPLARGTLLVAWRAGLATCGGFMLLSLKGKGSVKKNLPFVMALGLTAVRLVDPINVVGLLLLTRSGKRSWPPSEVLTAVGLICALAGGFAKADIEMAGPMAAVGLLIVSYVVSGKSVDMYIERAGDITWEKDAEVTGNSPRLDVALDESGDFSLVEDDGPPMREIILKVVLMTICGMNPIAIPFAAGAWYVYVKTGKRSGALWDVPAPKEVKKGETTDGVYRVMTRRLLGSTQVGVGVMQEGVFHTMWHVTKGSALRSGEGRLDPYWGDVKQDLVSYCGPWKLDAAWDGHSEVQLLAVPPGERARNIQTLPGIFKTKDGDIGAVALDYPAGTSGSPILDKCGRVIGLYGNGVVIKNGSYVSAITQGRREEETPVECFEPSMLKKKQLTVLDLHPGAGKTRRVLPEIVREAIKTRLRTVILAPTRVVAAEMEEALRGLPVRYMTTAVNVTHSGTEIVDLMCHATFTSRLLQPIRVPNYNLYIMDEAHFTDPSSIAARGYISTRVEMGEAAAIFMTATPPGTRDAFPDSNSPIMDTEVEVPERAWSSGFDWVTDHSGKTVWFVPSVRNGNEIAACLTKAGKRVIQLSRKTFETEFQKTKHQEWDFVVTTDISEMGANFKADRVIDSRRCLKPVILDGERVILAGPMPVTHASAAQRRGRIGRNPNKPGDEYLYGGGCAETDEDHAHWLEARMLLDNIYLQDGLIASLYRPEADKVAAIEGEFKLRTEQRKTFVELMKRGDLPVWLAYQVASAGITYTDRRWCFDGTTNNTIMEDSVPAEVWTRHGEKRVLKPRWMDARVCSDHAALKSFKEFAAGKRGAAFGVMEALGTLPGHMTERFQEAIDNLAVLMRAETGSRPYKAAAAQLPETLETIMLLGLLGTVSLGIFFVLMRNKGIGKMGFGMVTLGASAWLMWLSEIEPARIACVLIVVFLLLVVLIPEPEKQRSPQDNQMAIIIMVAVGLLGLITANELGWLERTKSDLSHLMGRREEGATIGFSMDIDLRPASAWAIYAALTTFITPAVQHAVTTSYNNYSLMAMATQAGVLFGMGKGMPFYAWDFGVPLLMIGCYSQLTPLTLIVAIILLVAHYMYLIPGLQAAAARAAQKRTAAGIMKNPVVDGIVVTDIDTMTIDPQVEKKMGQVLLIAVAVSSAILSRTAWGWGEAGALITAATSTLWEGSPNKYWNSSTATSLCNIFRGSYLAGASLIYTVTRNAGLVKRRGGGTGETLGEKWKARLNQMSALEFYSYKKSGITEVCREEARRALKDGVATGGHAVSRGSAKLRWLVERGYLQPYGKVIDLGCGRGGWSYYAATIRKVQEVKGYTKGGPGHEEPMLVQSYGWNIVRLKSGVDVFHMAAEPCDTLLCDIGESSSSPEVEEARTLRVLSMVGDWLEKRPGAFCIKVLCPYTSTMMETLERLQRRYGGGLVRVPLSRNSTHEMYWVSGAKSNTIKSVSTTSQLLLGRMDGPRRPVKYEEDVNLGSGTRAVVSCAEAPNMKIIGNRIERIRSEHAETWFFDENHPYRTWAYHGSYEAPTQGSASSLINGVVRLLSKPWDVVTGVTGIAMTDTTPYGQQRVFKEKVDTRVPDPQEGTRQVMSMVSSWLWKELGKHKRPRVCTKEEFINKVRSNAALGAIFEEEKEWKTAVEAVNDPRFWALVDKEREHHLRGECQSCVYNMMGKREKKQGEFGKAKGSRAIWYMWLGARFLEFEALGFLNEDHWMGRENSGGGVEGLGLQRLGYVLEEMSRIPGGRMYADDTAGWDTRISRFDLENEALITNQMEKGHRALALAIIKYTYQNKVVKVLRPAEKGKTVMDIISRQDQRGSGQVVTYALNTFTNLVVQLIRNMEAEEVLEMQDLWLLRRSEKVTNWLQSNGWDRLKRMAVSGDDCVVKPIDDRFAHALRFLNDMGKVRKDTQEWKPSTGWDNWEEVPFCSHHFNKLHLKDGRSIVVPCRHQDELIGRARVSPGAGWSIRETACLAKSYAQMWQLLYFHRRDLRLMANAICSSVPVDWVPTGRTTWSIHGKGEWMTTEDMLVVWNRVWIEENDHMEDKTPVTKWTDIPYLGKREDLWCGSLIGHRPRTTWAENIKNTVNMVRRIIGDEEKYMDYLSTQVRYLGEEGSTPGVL
DDB1/DCAF12: DDB1/DCAF12 (Homo sapiens, UniProt Q16531+Q5T6F0)
UniProt Q5T6F0, sequence (whole entry, looked up): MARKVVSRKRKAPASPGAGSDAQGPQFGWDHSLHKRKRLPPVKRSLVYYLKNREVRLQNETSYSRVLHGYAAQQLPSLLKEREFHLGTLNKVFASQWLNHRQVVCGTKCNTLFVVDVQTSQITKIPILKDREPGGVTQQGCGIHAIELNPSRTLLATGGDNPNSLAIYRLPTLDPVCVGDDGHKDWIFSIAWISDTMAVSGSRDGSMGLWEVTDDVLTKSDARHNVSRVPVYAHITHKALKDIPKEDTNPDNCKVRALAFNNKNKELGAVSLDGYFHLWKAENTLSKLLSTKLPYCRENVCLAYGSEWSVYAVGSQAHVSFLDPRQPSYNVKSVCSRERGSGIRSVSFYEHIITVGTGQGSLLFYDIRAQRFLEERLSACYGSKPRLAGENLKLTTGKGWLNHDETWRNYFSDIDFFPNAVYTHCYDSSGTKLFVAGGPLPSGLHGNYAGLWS
UniProt P63096, sequence (whole entry, looked up): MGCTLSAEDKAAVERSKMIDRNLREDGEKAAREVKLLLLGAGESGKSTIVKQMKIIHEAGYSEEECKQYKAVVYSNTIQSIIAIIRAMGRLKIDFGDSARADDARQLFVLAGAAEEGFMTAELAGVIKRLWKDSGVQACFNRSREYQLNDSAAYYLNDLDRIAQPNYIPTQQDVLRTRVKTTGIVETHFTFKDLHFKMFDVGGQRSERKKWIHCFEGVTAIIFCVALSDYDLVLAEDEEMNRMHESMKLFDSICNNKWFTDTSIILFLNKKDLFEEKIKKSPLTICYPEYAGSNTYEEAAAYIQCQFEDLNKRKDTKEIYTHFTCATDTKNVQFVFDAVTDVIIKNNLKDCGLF
UniProt S0F332, sequence (whole entry, looked up): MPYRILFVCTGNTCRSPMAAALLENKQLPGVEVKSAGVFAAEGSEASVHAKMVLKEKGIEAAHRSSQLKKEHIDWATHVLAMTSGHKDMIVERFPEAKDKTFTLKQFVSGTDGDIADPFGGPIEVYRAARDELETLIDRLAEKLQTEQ

O=c1[nH]c2scc(-c3ccccc3)c2c(=O)n1O — IC50 (Tripartite terminase subunit 3 C-terminal nuclease domain; endonuclease activity, inhibitor; with: dsDNA substrate): 5.6 ± 3.1 µM
CC[C@H](C)[C@H](NC(=O)[C@H](CCSC)NC(=O)[C@H](CC(=O)O)NC(=O)[C@H](CCC(N)=O)NC(=O)[C@H](CC(C)C)NC(=O)[C@@H](N)CCC(=O)O)C(=O)N[C@@H](CC(N)=O)C(=O)O — IC50 (Protein cereblon, with DDB1 (CRBN, Homo sapiens, UniProt Q96SW2); binding, ligand, TR-FRET displacement): 4.33 µM
O=C(O)[C@@H]1Cc2c([nH]c3ccccc23)[C@@H](c2ccc(Cl)cc2Cl)N1 — IC50 (MEP cytidylyltransferase IspD (Plasmodium vivax, UniProt A5K9U5); enzyme activity, inhibitor; with: 50 µM CTP): 0.31 µM
CCOP(=O)(OCC)SCSCC — IC50 (Acetylcholinesterase (ache, Electrophorus electricus, UniProt O42275); enzyme activity, inhibitor): 2.6 ± 0.1 µM
O=c1[nH]c2cc(-c3ccc(Cl)cc3)ccc2c(=O)n1O — IC50 (Tripartite terminase subunit 3 C-terminal nuclease domain; enzyme activity, inhibitor): 6.7 ± 1.2 µM
C#CCCCCCCCCn1nc(OC)oc1=O — IC50 (Uncharacterized hydrolase SAUSA300_2518 (Staphylococcus aureus, UniProt Q2FDS6); enzyme activity, inhibitor; USA300; 1 h preincubation, enzyme 0.5 nM, with: 20 µM 4-MU octanoate): 0.187 µM
COc1ccc2[nH]c3c(c2c1)CCN(C)CC3 — IC50 (Nicotinic acetylcholine receptor alpha9/alpha10 (Rattus norvegicus, UniProt P43144+Q9JLB5); ACh-evoked current, antagonist, two-electrode voltage clamp; Xenopus laevis oocytes; holding potential -80 mV, with: 100 µM acetylcholine): 13 ± 0.7 µM
Cc1nnc2c3ccccc3c(N[C@@H](C)[C@H](c3ccccc3)N(C)C)nn12 — IC50 (Histone acetyltransferase KAT2B (KAT2B, Homo sapiens, UniProt Q92831); binding, NanoBRET tracer displacement; HEK293T): 0.27 ± 0.02 µM
CC[C@H](C)C[C@H](C)CCCCCCCCC(=O)N[C@H]1C[C@@H](O)[C@@H](NCCN)NC(=O)[C@@H]2[C@@H](O)CCN2C(=O)[C@H]([C@H](O)CCN)NC(=O)[C@H]([C@H](O)[C@@H](O)c2ccc(O)cc2)NC(=O)[C@@H]2C[C@@H](O)CN2C(=O)[C@H]([C@@H](C)O)NC1=O — IC50 (Solute carrier organic anion transporter family member 1B3 (SLCO1B3, Homo sapiens, UniProt Q9NPD5); inhibitor): 1.2 µM
Nc1c2c(nc3c1C(c1ccc(Cl)c(Cl)c1)c1ccc(OCC(=O)c4ccccc4)cc1O3)CCCC2 (stereo not drawn) — IC50 (Amyloid-beta precursor protein (APP, Homo sapiens, UniProt P05067); Aβ42 self-aggregation, inhibitor, thioflavin T fluorescence): 1.41 µM
COc1cc(Nc2ncc(F)c(Nc3ccc4c(n3)NC(=O)C(C)(C)O4)n2)cc(OC)c1OC — IC50 (5-hydroxytryptamine receptor 3A (HTR3A, Homo sapiens, UniProt P46098)): > 10 µM
Cc1sc2c(=O)n(O)c(=O)[nH]c2c1C — IC50 (Tripartite terminase subunit 3 C-terminal nuclease domain; endonuclease activity, inhibitor; with: dsDNA substrate): 0.61 ± 0.05 µM
Nc1nc2c(ncn2[C@@H]2O[C@H](COP(=O)(O)OP(O)(O)=S)[C@@H](O)[C@H]2O)c(=O)[nH]1 — IC50 (Guanine nucleotide-binding protein G(i) subunit alpha-1, with Gbeta and Ggamma (GNAI1, Homo sapiens, UniProt P63096); G protein dissociation, TruPATH BRET; receptor-free Gαi1): 0.0173 µM and 0.00883 µM and 0.0115 µM
O=C(Nc1nc2nc(C(F)(F)F)cc(C(F)(F)F)c2s1)c1cc2ccccc2o1 — IC50 (Genome polyprotein NS2B-NS3 protease; inhibitor): 0.94 ± 0.05 µM
[Cu+2] — IC50 (Protein-arginine-phosphatase (ywle, Geobacillus stearothermophilus, UniProt S0F332)): 2.8 ± 0.15 µM
NCCOCC(=O)N1CCC[C@H](C(=O)NCc2nc(-c3ccc(C(F)(F)F)cc3)cs2)C1 — IC50 (20S proteasome (Plasmodium falciparum, UniProt A0A5K1K7U1+Q8I261+Q8IJT1); Succ-LLVY-AMC 0.5 µM, with: WLW-vs 3 µM): 0.077 µM
Cc1nccc2c1[nH]c1ccccc12 — IC50 (Dual specificity tyrosine-phosphorylation-regulated kinase 1A (Dyrk1a, Rattus norvegicus, UniProt Q63470); inhibitor): 1.82 ± 0.4 µM
COc1cc(OC)cc(C(=O)Nc2nc3nc(C)cc(C)c3s2)c1 — IC50 (Genome polyprotein NS2B-NS3 protease; inhibitor): 134 ± 2 µM
O=C1c2ccccc2C(=O)c2oc(-c3cccnc3)nc21 — IC50 (Ubiquitin carboxyl-terminal hydrolase 1 (USP1, Homo sapiens, UniProt O94782); enzyme activity): 0.41 ± 0.08 µM
CC[C@H](C)[C@H](NC(=O)[C@@H](N)CC(=O)O)C(=O)N[C@@H](CCCNC(=N)N)C(=O)N[C@@H](CCCCN)C(=O)N1CCC[C@H]1C(=O)NCC(=O)N[C@@H](CCC(=O)O)C(=O)N[C@@H](CO)C(=O)N[C@@H](CCC(=O)O)C(=O)N[C@@H](CC(=O)O)C(=O)O — IC50 (DDB1/DCAF12; binding, TR-FRET competition): 222 µM
C[C@H]1CN(c2n[nH]c3nc(N[C@H]4CC[C@H](NS(=O)(=O)CCC(F)(F)F)CC4)ncc23)CCO1 — IC50 (Stress-70 protein, mitochondrial (HSPA9, Homo sapiens, UniProt P38646); biochemical): ≥ 20 µM
C[C@H]1COCCN1c1nc(NCc2cccnc2C(F)(F)F)c2cccnc2n1 — IC50 (human 5-HT1B receptor): > 100 µM
COCCn1c2nc(=O)n(-c3ccccc3)c(=O)c-2nc2ccccc21 — IC50 (Genome polyprotein, NS5 MTase domain (ZIKV, UniProt A0A024B7W1); binding, displacement; Zika virus): 4.9 µM
O=C(O)CC[C@H](NC(=O)[C@H](CCC(=O)O)NC(=O)[C@H](CO)NC(=O)[C@H](CCC(=O)O)NC(=O)CNC(=O)[C@@H]1CCCN1)C(=O)O — IC50 (DDB1/DCAF12; binding, TR-FRET competition): 15.6 µM
O=C(NCCCCCCNC(=O)ON=C1CCCCC1)ON=C1CCCCC1 — IC50 (Platelet-activating factor acetylhydrolase (PLA2G7, Homo sapiens, UniProt Q13093); enzyme activity, inhibitor; with: FP-biotin 1 µM): 7.44 µM
Cc1cc(C)c2sc(NC(=O)c3cc4cccnc4o3)nc2n1 — IC50 (Genome polyprotein NS2B-NS3 protease; inhibitor): 168 ± 40 µM
CC[C@H](C)[C@H](NC(=O)[C@@H](N)CC(=O)O)C(=O)N[C@@H](CCCNC(=N)N)C(=O)N[C@@H](CCCCN)C(=O)N1CCC[C@H]1C(=O)NCC(=O)N[C@@H](CCC(=O)O)C(=O)N[C@@H](CO)C(=O)N[C@@H](C)C(=O)N[C@@H](CCC(=O)O)C(=O)O — IC50 (DDB1/DCAF12; binding, TR-FRET competition): 53.8 µM

Some of these lines once more:
CCOP(=O)(OCC)SCSCC — IC50 (Acetylcholinesterase (ache, Electrophorus electricus, UniProt O42275); enzyme activity, inhibitor): 2.6 ± 0.1 µM
Cc1cc(C)c2sc(NC(=O)c3cc4cccnc4o3)nc2n1 — IC50 (Genome polyprotein NS2B-NS3 protease; inhibitor): 168 ± 40 µM
